Measured values collected from several papers.
Compare with care: the assays were run in different laboratories. ± gives the spread as reported.

`NC1(C(=O)N[C@@H](CCO)c2ccc(Cl)cc2)CCN(c2nc[nH]c3nccc2-3)CC1`: “incidence of Stomatitis” 0% (metastatic CRPC patients; dose not given, grade 3 to 4, treatment-related, all doses, together with: enzalutamide 160 mg daily).
For `Cn1cnc2ccc(Nc3c(F)ccc(NS(=O)(=O)N4CC(F)C4)c3Cl)c(Cl)c2c1=O`, “patients with fatigue” read 8% (item: fatigue grade 1-2; human patients; dose not given, monotherapy trial; relative to: patients).
The ECG observations of `CCOc1c([C@H](C)n2nc(C)c3c(N)ncnc32)cc(Cl)c(F)c1[C@@H]1CNC(=O)C1` is reported as 0% (item: QTcF above 500 ms; previously treated B-cell malignancy; oral, 20 mg once daily, baseline QTcF ≤450 ms).
The biodistribution of `O=c1[nH]c(=O)n([C@@H]2O[C@H](CO)[C@@H](O)[C@@H]2F)cc1CCCC[18F]` is reported as 0.21 ± 0.05 %ID/g (nude mice, RG2 tumour, muscle; intravenous, dose not given, 2 h).
For `Cc1cc(Nc2ncnc3ccc(NC4=NC(C)(C)CO4)cc23)ccc1Oc1ccn2ncnc2c1`, “drug-related adverse events” read 7.7% (item: Pruritus; healthy volunteers; oral, dose not given, grade 1-2).
The log KOA of `C[Si](C)(C)O[Si](C)(C)O[Si](C)(C)C` is reported as 3.51 (1.9 to 6.0 µg/L, 35.0 °C).
Under “decreased appetite incidence (all grades)”, `CNC(=O)c1ccc(-c2cnc3ncc(Cc4ccc5ncccc5c4)n3n2)cc1F` is recorded as 18% (CTCAE v4.0, any causality; human hepatocellular carcinoma patients; oral, 600 mg twice daily, expansion cohort at RP2D).
`CC(C)[C@@H](CS(=O)(=O)C(C)C)N1C(=O)[C@@](C)(CC(=O)O)C[C@H](c2cccc(Cl)c2)[C@H]1c1ccc(Cl)cc1`: “brain-to-plasma ratio (Kp)” 0.265 (FVB mouse, Abcb1a/b knockout, brain, plasma; intravenous, 20 mg/kg).
`CC(C)N(CCCCOCC(=O)NS(C)(=O)=O)c1cnc(-c2ccccc2)c(-c2ccccc2)n1` — result for “k21 rate constant”: 0.035 h⁻¹ (population PK model; healthy human, plasma; oral).
`CCC(C)n1ncn(-c2ccc(N3CCN(c4ccc(OCC5COC(Cn6cncn6)(c6ccc(Cl)cc6Cl)O5)cc4)CC3)cc2)c1=O` (centres unmarked) has an adverse events of 20% (healthy human volunteers; oral, 200 mg, event Investigations, continued dosing).
Under “abdominal pain incidence”, `CNCc1ccc(-c2[nH]c3cc(F)cc4c3c2CCNC4=O)cc1` is recorded as 0% (patients; oral, 600 mg twice daily, grade 4).
The total testosterone of `N#Cc1ccc2c(c1)[C@H]1CCCN(C(=O)c3ccc4[nH]cnc4c3)[C@H]1C2` is reported as 0.8 nmol/L (human females; 360 mg, end of trial).
For `Cc1cc(/C=C/C#N)cc(C)c1Nc1ccnc(Nc2ccc(C#N)cc2)n1`, equilibrium solubility read “not detected” (buffer; 24 h, pH 6.8, 37 °C, below quantification limit 50 ng/mL).
Under “patients with adverse event”, `CCn1cc(C(=O)N2CCOCC2)c(=O)c2cc(NC3Cc4ccccc4C3)cnc21` is recorded as 3.7% (human, GAD, PTSD or social anxiety disorder; dose not given, TEAE Fatigue, pooled phase trials).
`C[C@H](CCC(=O)NCC(=O)O)[C@H]1CC[C@H]2[C@@H]3CC[C@@H]4C[C@H](O)CC[C@]4(C)[C@H]3CC[C@]12C` has a Cmin of 8.46 ± 2.04 nM (human, plasma; control).
`CCN1CCN(Cc2ccc(NC(=O)c3ccc(C)c(NC(=O)c4cncc(-c5cccs5)c4)c3)cc2C(F)(F)F)CC1` gave an apparent clearance of 51.3 mL/min/kg (C57BL/6 mice, epithelial lining fluid; intraperitoneal, 30 mg/kg).
For `O=C(NO)c1ccc(CN(c2cnccn2)c2cnccn2)cc1`, “patients with adverse event” read 25% (human; oral, dose not given, treatment-related grade 1, all dose cohorts).
`CCC(CC)[C@H]1CO[C@H](C)[C@@H](c2cccc(Cl)c2)N1` has a solubility of less than 4 µM (shake-flask, LC-HRMS; aqueous buffer; 16 h, pH 6.8).
`CC(C)(C(=O)N1CCOc2c(C#N)cncc2C1)C(F)F` — result for “subjects with headache TEAE”: 0% (human, both sexes; oral, 30 mg single dose).
Under “increased urine β2-microglobulin”, `Cc1ccc(Sc2ccccc2N2CCNCC2)c(C)c1` is recorded as 12.5% (elderly women; oral, 10 mg single).
For `CNCCOC12CC3(C)CC(C)(CC(Cn4ncc(-c5ccc(N6CCc7cccc(C(=O)Nc8nc9ccccc9s8)c7C6)nc5C(=O)O)c4C)(C3)C1)C2`, “dP/dt at 50 change” read -5% (beagle dog, male, anaesthetised; intravenous bolus, 0.03 mg/kg, 90 min; relative to: baseline).
`CCc1cc2c(cc1N1CCC(N3CCOCC3)CC1)C(C)(C)c1[nH]c3cc(C#N)ccc3c1C2=O` — result for “average plasma concentration”: 1480 nM (ALK inhibitor-naive patients; oral, 600 mg twice daily, week 6).
`Cc1cccc(CNC(=O)c2cn(CCNC(=O)c3ccccc3S)c3cc4c(cc3c2=O)OC(F)(F)O4)n1` gave an MRT(0-inf) of 8.67 h (Sprague-Dawley rat, male, whole blood; intramuscular, 3 mg/kg of parent drug).
`Cc1ncnc2c1ccn2[C@@H]1C[C@H](Oc2cc(C(F)F)c(F)c3c2CNCC3)[C@@H](O)[C@H]1O` gave a Cmin of 2.54 ng/mL (human; oral, 0.5 mg twice daily).
`O=C(Nc1ccc(OC(F)(F)Cl)cc1)c1cnc(N2CC[C@@H](O)C2)c(-c2ccn[nH]2)c1` — result for “grade ≥2 event rate”: 0.6% (per treatment cycle, item: ALT increase; human patients; oral, dose not given, 28 day cycle).
`COc1cc(Nc2ncc3c(n2)-c2ccc(Cl)cc2C(c2c(F)cccc2OC)=NC3)ccc1C(=O)O` — result for “patients with adverse event”: 4% (item: back pain, grade 2; cancer patients, phase 1/2; oral, dose not given, together with: pembrolizumab).
`CCO[C@H]1CCN(Cc2c(OC)cc(C)c3[nH]ccc23)[C@H](c2ccc(C(=O)O)cc2)C1` — result for “incidence of flatulence”: 14.3% (PNH patients, active haemolysis; oral, 100 mg, 8 weeks, treatment).
`O=C(Nc1nc2cccc(-c3ccc(CN4CCS(=O)(=O)CC4)cc3)n2n1)C1CC1` — result for “treatment-emergent adverse events”: 10% (item: dysgeusia; human rheumatoid arthritis patients; oral, 300 mg once daily, 4 weeks, regardless of relatedness).
`Cc1cc([C@H]2C[C@H]3[C@@H](CF)SC(N)=N[C@@]3(c3ccc(F)cc3F)CO2)on1` has a CSF concentration of 75 nM (129/SVE wild-type mouse, male; subcutaneous, 100 mg/kg, 5 h).
`O=c1[nH]c(=O)n([C@H]2C[C@H](O)[C@@H](CO)O2)cc1CCCCC[18F]` gave a biodistribution of 0.14 ± 0.02 %ID/g (male CD-1 nu/nu mice, RG2 tumour, heart; intravenous, dose not given, 2 h).
For `CNC(=O)c1cc(Oc2ccc(NC(=O)Nc3ccc(Cl)c(C(F)(F)F)c3)c(F)c2)ccn1`, “short-term stability accuracy” read 99.1% (mouse plasma; 25 ng/mL, 8 h, room temperature).
For `Cc1cc(C(=O)NC(C)(C)COc2cccc3c2C(N)=NS(=O)(=O)N3)cc(C)n1.O=S(=O)(O)O`, the AUC(last) ratio was 1.78 (Sprague-Dawley rat, plasma; oral, 100 mg/kg, vehicle 1% methylcellulose; relative to: female over male).
For `COc1ccc([C@@H](O)c2cc(-c3ncnc4cc(N5CCOCC5)ccc34)c(F)cc2Cl)nn1`, “rectal tenesmus TEAE” read 33% (locally advanced rectal cancer; oral, 150 mg, together with: capecitabine and radiotherapy).
`COc1cccc(OC)c1-c1cc(C(=O)NC2(C(=O)O)C3CC4CC(C3)CC2C4)nn1-c1ccc(C(=O)N(C)CCCN(C)CCCN(C)C(=O)CN2CCN(CC(=O)[O-])CCN(CC(=O)[O-])CCN(CC(=O)[O-])CC2)cc1C(C)C.[177Lu+3]` (centres unmarked): “excretion (urine and faeces)” 55 ± 7 % ID (SCID mouse, HT-29 xenograft; iv, dose not given, 4 h).
For `COc1ccc2[nH]c([S+]([O-])Cc3ncc(C)c(OC)c3C)nc2c1` (centres unmarked), the AUC(0-inf) was 838 ± 502 ng·h/mL (healthy Chinese volunteers, plasma; oral, 20 mg, enteric-coated tablets, CYP2C19 intermediate metabolizers).
`COc1cc(C(=O)NC2CCN(C)CC2)c(F)cc1Nc1ncc(C(F)(F)F)c(Oc2cccc3c2C(=O)N(C)C3)n1` has a dose-normalised AUC(0-inf) of 287 nmol·h/L per mg (human patients, plasma; oral, 300 mg single dose, geometric mean).
The solubility of `CCOC(=O)N1C[C@@H](C2CCCC2)N[C@@H](c2ccc(-c3ccccc3)cc2)C1` is reported as less than 4 µM (shake-flask, LC-HRMS; aqueous buffer; 16 h, pH 6.8).
`C[C@H](CCC(=O)NCC(=O)O)[C@H]1CC[C@H]2[C@@H]3[C@H](O)C[C@@H]4C[C@H](O)CC[C@]4(C)[C@H]3C[C@H](O)[C@]12C` gave a Cmin of 10.9 ± 1.5 nM (human, plasma; endogenous baseline diurnal).
Under “lowest toxic concentration”, `CN1CCC(CNc2ccc3ncc(-c4cccc(OC(F)(F)F)c4)n3n2)CC1` is recorded as no less than 1.1 µM (thrombosis risk signature, BioMAP Diversity PLUS; primary human cell cocultures).
`Cn1cc(Nc2nccc(-c3ccc4c(c3)CN(C3COC3)CC[C@H]4NC(=O)c3cn(C(C)(C)C)nn3)n2)cn1`: “monocyte count change” -0.89% (human, whole blood; 300 mg twice daily, day 7; relative to: pre-dose baseline).
`CNC(=O)c1cc(Oc2ccc(NC(=O)Nc3cc(C(C)(C)C)nn3-c3ccc4ncccc4c3)c(F)c2)ccn1` — result for “patients with visual abnormality AE”: 18% (item: worst grade 1; human; oral, dose not given, cycles 1 and 2, Low Cmax subgroup).
`Cc1cc(NC2CCN(C(=O)OC3CCN(C(=O)/C=C/CN(C)C)C3)CC2)n2ncc(C(C)C)c2n1` (centres unmarked) — result for “patients with adverse event”: 18% (Phase I dose escalation CTCAE v4.0, item: Diarrhea; patients with advanced solid tumours; dose not given, TIW dosing any grade).
With `NC/C(=C\F)COc1cccc(Cn2c(=S)[nH]c(=O)c3[nH]cnc32)c1` the concentration was 398 ng/mL (C57BL/6J mice, lung; oral, 15 mg/kg single, 1 h).
`Cc1ccc([C@@H]2O[C@H](CO)[C@@H](O)[C@H](O)[C@H]2O)cc1Cc1ccc(-c2ccc(F)cc2)s1` — result for “urinary chloride excretion change”: -3.31 mEq (Japanese type 2 diabetes patients; 25 mg, day 4, 24 h urine collection; relative to: baseline).
The CSF concentration of `Cc1coc([C@H]2C[C@H]3[C@@H](CF)SC(N)=N[C@@]3(c3ccc(F)cc3F)CO2)n1` is reported as 1 nM (male 129/SVE mouse, CSF; subcutaneous, 80 mg/kg, 9 h).
With `Cc1cc([C@@H](C)Nc2ccccc2C(=O)O)c2nc(N3CCC(F)(F)CC3)c(C#N)c(=O)n2c1` the concentration was 23400 ng/mL (NOD-SCID mice, HCC1954 xenograft; intraperitoneal, 60 mg/kg once daily, 1 h).
For `Cc1c([C@@H]2COC[C@H](c3ccc(-c4ccccc4)cc3)N2)cnn1-c1ccccc1`, the solubility was less than 4 µM (shake-flask, LC-HRMS; aqueous buffer; 16 h, pH 6.8).
`CCc1cc(C(=O)NC)c2nccc(N3CCc4c(cc(Cn5ccnc5)cc4-c4cn(C)nc4C(F)(F)F)C3=O)c2c1`: “serum MCV change” 1.78% (Sprague Dawley rats; oral, 100 mg/kg once daily, 7 days; relative to: vehicle).
`CCCCc1ccc(-c2ccc(C#N)cc2)cc1` has a placental accumulation of 484 ± 601 ng/g (Sprague-Dawley rat, female, placenta; 5000 ng/mL in perfusate, 50 (unit not given), high dose, mixture of 21 LCMs).
With `C=CC(=O)Nc1cc(Nc2nccc(-c3cn(C4CC4)c4ccccc34)n2)c(OC)cc1N(C)CCN(C)C` the MONO percentage was 6.28 ± 0.296% (BALB/c nude mouse, LU0387 xenograft, blood; oral, 40 mg/kg).
`Cc1c(-c2ccc(N3CCc4cccc(C(=O)Nc5nc6ccccc6s5)c4C3)nc2C(=O)O)cnn1CC12CC3(C)CC(C)(C1)CC(OCCNCC[C@H](O)CO)(C3)C2`: “QRS duration change” 1 ms (beagle dog, male, anaesthetised; intravenous infusion, 0.3 mg/kg/min, 60 min; relative to: vehicle).
`CCN1/C(=C/C(C)=O)Sc2ccc(F)cc21` — result for “mean blood pressure change”: 104 ± 8.7% (cynomolgus monkey; oral, 100 mg/kg, 6 h post-dose; relative to: pre-dose).
`CCCC1CCC(c2ccc(OCC)c(F)c2F)CC1` (centres unmarked) has a placental accumulation of 454 ± 687 ng/g (rat, placenta; 5000 ng/mL in perfusate, high dose, mixture of 21 LCMs).
For `CCOC(=O)N1C[C@@H](c2ccc(-c3ccccc3)cc2)N[C@@H](C(CC)CC)C1`, the solubility was less than 4 µM (shake-flask, LC-HRMS; aqueous buffer; 16 h, pH 6.8).
`C=CCN1CC(=O)N2[C@@H](Cc3ccc(O)cc3F)C(=O)N(Cc3cccc(N4CC(N5CCN(CC)CC5)C4)n3)C[C@@H]2N1C(=O)NCc1ccccc1` — result for “treatment-related adverse events”: 0% (item: Nausea; advanced solid tumour patients; all doses, dose-escalation part, grade ≥3).
The total AUC(0-t) of `CCO[C@H]1CCN(Cc2c(OC)cc(C)c3[nH]ccc23)[C@H](c2ccc(C(=O)O)cc2)C1` is reported as 52300 ng·h/mL (healthy volunteers, plasma; oral, 200 mg single dose, geometric mean).

For quick reference, copied from above:
For `Cc1cc(C(=O)NC(C)(C)COc2cccc3c2C(N)=NS(=O)(=O)N3)cc(C)n1.O=S(=O)(O)O`, the AUC(last) ratio was 1.78 (Sprague-Dawley rat, plasma; oral, 100 mg/kg, vehicle 1% methylcellulose; relative to: female over male).
With `C=CC(=O)Nc1cc(Nc2nccc(-c3cn(C4CC4)c4ccccc34)n2)c(OC)cc1N(C)CCN(C)C` the MONO percentage was 6.28 ± 0.296% (BALB/c nude mouse, LU0387 xenograft, blood; oral, 40 mg/kg).
`CCCCc1ccc(-c2ccc(C#N)cc2)cc1` has a placental accumulation of 484 ± 601 ng/g (Sprague-Dawley rat, female, placenta; 5000 ng/mL in perfusate, 50 (unit not given), high dose, mixture of 21 LCMs).
